# Published values of several laboratories.
# Protocols differ between the studies behind these lines. ± gives the spread as reported.
# Organism: SARS-CoV-2
Substance,assay,system,conditions,scale,measurement,result
CC(C)(C)c1ccc(CN2CCN(C(c3ccccc3)c3ccc(Cl)cc3)CC2)cc1 (centres unmarked),"viral replication, high-content imaging screen",,cell-based,,EC50,20.4 µM
CC(C)=CCc1c(O)ccc(C(=O)/C=C/c2ccc(O)cc2)c1O,cytopathic effect,Vero E6,"0.7812 µM, replicate run",,mean inhibition,0%
CCC(CC)COC(=O)[C@H](C)N[P@](=O)(OC[C@H]1O[C@@](C#N)(c2ccc3c(N)ncnn23)[C@H](O)[C@@H]1O)Oc1ccccc1,"viral replication, qRT-PCR of viral RNA","Caco-2, Washington",,,EC90,0.04 ± 0.02 µM
CCN(CC)CCCNC(=O)c1ccc(-c2nc(CN3CCc4ccccc43)c(C)o2)cc1,"cytopathic effect, cell-based CPE",USA_WA1/2020,"round 2, 5-point dilution",,AC50,12.6 µM
Cc1ccc(NS(=O)(=O)c2cccc(C(=O)NC3CCN(c4ncnc5[nH]cnc45)CC3)c2)cc1,,"A549-ACE2, Wuhan-Hu-1",66.67 µM,reference: untreated,relative infection,33.5%
Cn1cnc(Cn2c(=O)[nH]/c(=N\c3cc4cn(C)nc4cc3Cl)n(Cc3cc(F)c(F)cc3F)c2=O)n1,viral replication,Delta strain,72 h,,EC90,0.117 ± 0.026 µM
Cc1cc(-c2ccc(/N=N/c3ccc4c(S(=O)(=O)O)cc(S(=O)(=O)O)c(N)c4c3O)c(C)c2)ccc1/N=N/c1ccc2c(S(=O)(=O)O)cc(S(=O)(=O)O)c(N)c2c1O,"viral replication, GFP plate reader screen",,cell-based,,EC50,> 100 µM
COc1cc2c(cc1OC)CC(=O)N(CCCN(C)C[C@H]1Cc3cc(OC)c(OC)cc31)CC2,viral replication,Huh-7,,,IC50,> 2 µM
Cc1cccc(/C=N/Nc2cc(N3CCOCC3)nc(OCCc3ccccn3)n2)c1,,"Vero C1008, USA-WA1/2020",,reference: CC50 over EC50,selectivity index,108
IVDTVSALV,,"peptide, T cells from acute-phase patients",dose not given,,antigen-specific T cell frequency,0.0266%
COc1ccc(C[C@@H]2c3cc(Oc4cc(C[C@@H]5c6cc(O)c(OC)cc6CCN5C)ccc4O)c(OC)cc3CCN2C)cc1,viral replication,Vero E6,0.7812 µM,,CPE inhibition,0%
CS(=O)(=O)CCNCc1ccc(-c2ccc3ncnc(Nc4ccc(OCc5cccc(F)c5)c(Cl)c4)c3c2)o1,viral replication,Huh-7,,,IC50,> 2 µM
COc1cc2c(cc1OCC1CC1)NC(=O)C21CCN(c2cc(NC3CC3)ncn2)CC1,"cytopathic effect, cell-based CPE",USA_WA1/2020,"round 1, 5-point dilution",,AC50,15.8 µM
CCCC(CCC)C(=O)O,,Vero E6,"concentration not given, NYC laboratory",,viral replication inhibition,inactive
Cc1nn(-c2ccc(Cl)cc2)c2c1C(c1ccc(F)cc1F)C(C#N)=C(N)O2 (centres unmarked),viral replication,Vero,10 µM,,viral reduction,4.78%
CCN(CC)CCOCCOC(=O)C1(c2ccccc2)CCCC1,,,"concentration not given, Paris laboratory",,viral replication inhibition,inactive
Cc1c(Cl)cccc1-c1ccc(CNCCSc2nnnn2-c2ccccc2)o1,cytopathic effect,USA_WA1/2020,"round 1, 5-point",,maximum response,37.6%
NC(=O)c1ncn([C@@H]2O[C@H](CO)[C@@H](O)[C@H]2O)n1,,Vero E6,"concentration not given, NYC laboratory",,viral replication inhibition,inactive
CC1(C)CCC(c2ccc(Cl)cc2)=C(CN2CCN(c3ccc(C(=O)NS(=O)(=O)c4ccc(N[C@H](CCN5CCOCC5)CSc5ccccc5)c(S(=O)(=O)C(F)(F)F)c4)cc3)CC2)C1,"viral replication, high-content imaging screen",,cell-based,,EC50,> 100 µM
CC(C)(O)c1ccc2c(c1)C(=CCCN1CCC(O)(c3ccc(Cl)cc3)C(C)(C)C1)c1cccnc1CO2 (centres unmarked),viral replication,"Vero C1008, USA-WA1/2020","concentration not given, 24 h",,inhibition,50 to 60%
CN1c2c(nc(N)[nH]c2=O)NC[C@@H]1CNc1ccc(C(=O)N[C@@H](CCC(=O)O)C(=O)O)cc1,viral replication,Huh-7,,,IC50,> 2 µM
CCC1CCCCN1CCCNC(=O)c1sc2nc(C)cc(C)c2c1-n1cccc1 (centres unmarked),cytopathic effect,USA_WA1/2020,"round 1, 5-point",,maximum response,90.5%
CCC1(CC)C(=O)NCC(C)C1=O (centres unmarked),"viral replication, high-content imaging screen",,cell-based,,EC50,> 25.1 µM
Cc1nn(-c2ccc(Cl)cc2)c2c1C(c1ccc(Cl)c(Cl)c1)C(C#N)=C(N)O2 (centres unmarked),"RT-qPCR, item: viral RNA",Vero,1 µM,higher means less virus,Ct value,23.3 cycles
CC(C)(C)[C@H](NC(=O)C(F)(F)F)C(=O)N1C[C@H]2[C@@H]([C@H]1C(=O)N[C@H](C#N)C[C@@H]1CCNC1=O)C2(C)C,"viral replication, infectious virus",Vero E6,3 µM,,inhibition,97.2%
CN1CCC(=C2c3ccccc3Sc3ccccc32)CC1,"viral replication, GFP plate reader screen",,cell-based,,EC50,> 100 µM
O=C(/C=C/c1ccc(O)c(O)c1/C=C/c1ccc(O)c(O)c1)O[C@H](Cc1ccc(O)c(O)c1)C(=O)O,viral replication,Vero E6,100 µM,reference: mean of replicates,CPE inhibition,80%
Cc1ccc2c(NC(C)c3ccccc3)nc(N3CCNCC3)nc2c1 (centres unmarked),"cytopathic effect, cell-based CPE",USA_WA1/2020,"round 2, 5-point dilution",,efficacy,92.8%
Cc1nn(-c2ccc(Cl)cc2)c2c1C(c1ccc(Br)cc1)C(C#N)=C(N)O2 (centres unmarked),,Vero C1008,1 µM,reference: positive control,viral titre log reduction,0.0468 log10
CN(C)CCC(c1ccc(Cl)cc1)c1ccccn1 (centres unmarked),viral replication,A549 expressing ACE2,inactive set pIC50 4,,IC50,> 10 µM
COc1ccc2[nH]c([S+]([O-])Cc3ncc(C)c(OC)c3C)nc2c1 (centres unmarked),viral replication,Huh-7,,,IC50,> 2 µM
CN1[C@@H]2CC[C@H]1C[C@@H](OC1c3ccccc3CCc3ccccc31)C2,"viral replication, high-content imaging screen",,cell-based,,EC50,> 50.1 µM
Cc1c(-c2ccccc2)oc2c(C(=O)OCCN3CCCCC3)cccc2c1=O,viral replication,A549 expressing ACE2,inactive set pIC50 4,,IC50,> 10 µM
Cc1ccc2nc(C3CCCN(Cc4cccc(-c5cccnc5)c4)C3)[nH]c(=O)c2c1 (centres unmarked),cytopathic effect,USA_WA1/2020,"round 2, 5-point",,efficacy,82.7%
Oc1cc2c(cc1O)[C@H]1c3ccccc3CN[C@@H]1CC2 (racemic),"viral replication, GFP plate reader screen",,cell-based,,EC50,7.94 µM
CN(C)CCOC(C)(c1ccccc1)c1ccccn1 (centres unmarked),"viral replication, anti-nucleoprotein immunostaining",Vero E6,,,IC50,> 10 µM
CCN(CC)Cc1ccc2cc(COC(=O)Nc3ccc(C(=O)NO)cc3)ccc2c1,"viral replication, high-content imaging screen",,cell-based,,EC50,> 100 µM
O=C(O[C@@H]1Cc2c(O)cc(O)cc2O[C@@H]1c1cc(O)c(O)c(O)c1)c1cc(O)c(O)c(O)c1,cytopathic effect,Vero E6,"6.25 µM, replicate run",,mean inhibition,0%
CC1CCCN(CCCNC(=O)c2cc(Sc3ccc(F)cc3)nc3ccccc23)C1 (centres unmarked),cytopathic effect,USA_WA1/2020,first round 5-point,,AC50,12.6 µM
Cc1nn(-c2ccc(Cl)cc2)c2c1C(c1ccc(Cl)cc1)C(C#N)=C(N)O2 (centres unmarked),"RT-qPCR, item: viral RNA",Vero,1 µM,higher means less virus,Ct value,23 cycles
COc1ccc2c(Sc3ccc(Cl)cc3)c(C(=O)NCCCN3CCCCC3)[nH]c2c1,cytopathic effect,USA_WA1/2020,"round 2, 5-point",,maximum response,97.4%
Cc1ccccc1NC(=N)Nc1ccccc1C,"viral replication, RT-qPCR",A549 expressing ACE2,,,IC50,> 10 µM
COc1ccc(CCN2CCC(Nc3nc4ccccc4n3Cc3ccc(F)cc3)CC2)cc1,viral replication,"293T-ACE2, USA-WA1/2020",,,EC90,2.19 µM
CCNC(=O)c1cc2c(-c3cc(C(C)(C)O)ccc3Oc3c(C)cc(F)cc3C)cn(C)c(=O)c2[nH]1,,,"concentration not given, Paris laboratory",,viral replication inhibition,inactive

# Some of these lines once more:
Substance,assay,system,conditions,scale,measurement,result
COc1ccc2c(Sc3ccc(Cl)cc3)c(C(=O)NCCCN3CCCCC3)[nH]c2c1,cytopathic effect,USA_WA1/2020,"round 2, 5-point",,maximum response,97.4%
Cc1ccccc1NC(=N)Nc1ccccc1C,"viral replication, RT-qPCR",A549 expressing ACE2,,,IC50,> 10 µM
COc1ccc(CCN2CCC(Nc3nc4ccccc4n3Cc3ccc(F)cc3)CC2)cc1,viral replication,"293T-ACE2, USA-WA1/2020",,,EC90,2.19 µM
CCNC(=O)c1cc2c(-c3cc(C(C)(C)O)ccc3Oc3c(C)cc(F)cc3C)cn(C)c(=O)c2[nH]1,,,"concentration not given, Paris laboratory",,viral replication inhibition,inactive
